Measurements collected from several papers.
Protocols differ between the studies behind these lines.
Cell line: CCRF-CEM

| Compound | test | conditions | endpoint | result |
| --- | --- | --- | --- | --- |
| O=c1ccn([C@@H]2O[C@H](CSSc3ccccn3)[C@@H](O)[C@H](F)[C@H]2O)c(=O)[nH]1 | cell growth or viability |  | IC50 | 9.2 µM |
| CC(=O)OC[C@H]1O[C@@H](Sc2sc(C(=O)c3ccc(C)cc3)c(N)c2-c2nc3ccccc3s2)[C@H](OC(C)=O)[C@@H](OC(C)=O)[C@@H]1OC(C)=O | SRB | 10 µM, 48 h | growth | 60.5% |
| COc1cc(CNC(=O)C[C@H](C)CCC=C(C)C)ccc1OCc1cn(-c2ccc(F)cc2)nn1 | SRB | 10 µM, 48 h | growth | 84% |
| CC/C=C\C/C=C\C/C=C\C/C=C\C/C=C\C/C=C\CCC(=O)Nc1ccn(C2OC(CO)C(O)C2(F)F)c(=O)n1 (centres unmarked) | NCI60 screen |  | TGI | 17.9 µM |
| COc1ccc(C2=Nn3c(NN=C4C(=O)N(Cc5ccccc5)c5ccc(Cl)cc54)nnc3SC2)cc1 | cell growth or viability, SRB | 10 µM | inhibition | 46% |
| Nc1ccn([C@@H]2O[C@H](CSSc3ccccn3)[C@@H](O)[C@H](F)[C@H]2O)c(=O)n1 | cell growth or viability |  | IC50 | > 500 µM |
| COc1ccc(C2=Nn3c(NN=C4C(=O)N(C)c5ccc(Br)cc54)nnc3SC2)cc1 | cell growth or viability, SRB | 10 µM | inhibition | 18% |
| COc1cc(CNC(=O)C[C@H](C)CCC=C(C)C)ccc1OCc1cn(-c2ccc(Cl)cc2Cl)nn1 | SRB | 10 µM, 48 h | growth | 116% |
| CCOc1ccccc1-c1nnc2n1N=C(c1ccc(N3CCCC3)cc1)CS2 | cell migration, Transwell migration |  | EC50 | 0.4 µM |
| COc1cc(CNC(=O)C[C@H](C)CCC=C(C)C)ccc1OCc1cn(-c2ccc([N+](=O)[O-])cc2)nn1 | SRB | 10 µM, 48 h | growth | 81.1% |
| C(=C/c1ccccc1)/c1ccccc1 | caspase-3 activity, flow cytometry | 24 h | EC50 | > 50 µM |
| COc1cc(CNC(=O)C[C@H](C)CCC=C(C)C)ccc1OCc1cn(-c2ccccc2Cl)nn1 | SRB | 10 µM, 48 h | growth | 40.1% |
| CC(=C(c1ccc(O)cc1)c1ccc(Cl)cc1)c1ccc(Cl)cc1 | cell growth or viability |  | GI50 | 0.79 µM |
| CC(=O)OC[C@H]1O[C@@H](Sc2sc(C(=O)c3ccc(Br)cc3)c(N)c2-c2nc3ccccc3s2)[C@H](OC(C)=O)[C@@H](OC(C)=O)[C@@H]1OC(C)=O | SRB | 10 µM, 48 h | growth | 44.1% |
| COc1cc(CNC(=O)C[C@H](C)CCC=C(C)C)ccc1OCc1cn(-c2ccc(Br)cc2)nn1 | SRB | 10 µM, 48 h | growth | 61.1% |
| CCOc1ccccc1-c1nnc2n1N=C(c1ccc(N3CCCC3=O)cc1)CS2 | cell migration, Transwell migration |  | EC50 | 0.22 µM |
| O=c1[nH]c(=O)n([C@@H]2O[C@H](CO)[C@@H](O)[C@H](F)[C@H]2O)cc1F | cell growth or viability |  | IC50 | > 200 µM |
